Assay results gathered from unrelated publications.
Every numbered part comes from another study and shows a few of its results, in no order.

Series 1
Target: UBE2D2 UBC core domain (UniProt P62837)
Chain of UniProt P62837 (whole entry, looked up): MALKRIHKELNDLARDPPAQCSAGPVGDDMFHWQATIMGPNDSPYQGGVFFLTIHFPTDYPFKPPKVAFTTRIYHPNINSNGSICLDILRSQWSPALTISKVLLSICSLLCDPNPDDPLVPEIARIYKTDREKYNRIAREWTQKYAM
Technique: yeast two-hybrid
Sample: yeast
Setting: mostly zero background
Relative to: not given
Reading: higher = stronger interaction
B1: TRAF5 RING domain (UniProt O00463); chain FVERLEERYKCAFCHSVLHNPHQTGCGHRFCQHCILSLRELNTVPICPVDKEVIKSQEVFK
B2: RNF208 RING domain (UniProt Q9H0X6); chain SSAAAGEPLECPTCGHSYNVTQRRPRVLSCLHSVCEQCLQILYESCPKYKFISCPTCRRETVLFTDYG
B3: DTX4 RING domain (UniProt Q9Y2E6); chain QKVRHPPDEDCTICMERLTAPSGYKGPQPTVKPDLVGKLSRCGHVYHIYCLVAMYNNGNKDGSLQCPTCKTIYGVKTGTQ
B4: TRIM24 RING domain (UniProt O15164); chain EAARLNLLDTCAVCHQNIQSRAPKLLPCLHSFCQRCLPAPQRYLMLPAPMLGSAETPPPVPAPGSPVSGSSPFATQVGVIRCPVCSQECAERHII
B5: TRIM5 RING domain (UniProt Q9C035); chain LREVKLSPEGQKVDHCARHGEKLLLFCQEDGKVICWLCERSQEHRGHHTFLTEEVAREYQVKL
B6: VPS41 RING domain (UniProt P49754); chain KGVLVDEENICESCLSPILPSDAAKPFSVVVFHCRHMFHKECLPMPSMNSAAQFCNICSAKNRGPGSAI
B7: RC3H1 RING domain (UniProt Q5TC82); chain QAPQWTDFLSCPICTQTFDETIRKPISLGCGHTVCKMCLNKLHRKACPFDQTTINTDIELL
B8: SH3RF2 RING domain (UniProt Q8TEC5); chain DDLTLLDLLECPVCFEKLDVTAKVLPCQHTFCKPCLQRVFKAHKELRCPECRTPVFSNIEAL
B9: TRIM4 RING domain (UniProt Q9C037); chain EAEDIQEELTCPICLDYFQDPVSIECGHNFCRGCLHRNWAPGGGPFPCPECRHPSAPAALRP
B10: NEURL1 RING domain (UniProt O76050); chain VTPGLGQWSDECTICYEHAVDTVIYTCGHMCLCYACGLRLKKALHACCPICRRPIKDIIKT
| Sequence | lacZ reporter activity |
| --- | --- |
| B1 (TRAF5 RING domain) | 0 |
| B2 (RNF208 RING domain) | 0 |
| B3 (DTX4 RING domain) | 0 |
| B4 (TRIM24 RING domain) | 0 |
| B5 (TRIM5 RING domain) | 0 |
| B6 (VPS41 RING domain) | 0 |
| DHGAVGQEMCCPICCSEYVKGEVATELPCHHYFHKPCVSIWLQKSGTCPVCRCMFPPPL (PJA1 RING domain (UniProt Q8NG27)) | 0 |
| B7 (RC3H1 RING domain) | 0 |
| B8 (SH3RF2 RING domain) | 0 |
| VEPSEENSKDCVVCQNGTVNWVLLPCRHTCLCDGCVKYFQQCPMCRQFVQESFALC (CGRRF1 RING domain (UniProt Q99675)) | 0 |
| B9 (TRIM4 RING domain) | 0 |
| B10 (NEURL1 RING domain) | 0 |

Series 2
Target: Interferon regulatory factor 7, full length, phosphomimetic (IRF7, Homo sapiens, UniProt Q92985, residues 1-503, S471D/S472D/S475D/S476D/S477D/S483D/S484D/S487D)
Chain of UniProt Q92985 (whole entry, unmodified, looked up): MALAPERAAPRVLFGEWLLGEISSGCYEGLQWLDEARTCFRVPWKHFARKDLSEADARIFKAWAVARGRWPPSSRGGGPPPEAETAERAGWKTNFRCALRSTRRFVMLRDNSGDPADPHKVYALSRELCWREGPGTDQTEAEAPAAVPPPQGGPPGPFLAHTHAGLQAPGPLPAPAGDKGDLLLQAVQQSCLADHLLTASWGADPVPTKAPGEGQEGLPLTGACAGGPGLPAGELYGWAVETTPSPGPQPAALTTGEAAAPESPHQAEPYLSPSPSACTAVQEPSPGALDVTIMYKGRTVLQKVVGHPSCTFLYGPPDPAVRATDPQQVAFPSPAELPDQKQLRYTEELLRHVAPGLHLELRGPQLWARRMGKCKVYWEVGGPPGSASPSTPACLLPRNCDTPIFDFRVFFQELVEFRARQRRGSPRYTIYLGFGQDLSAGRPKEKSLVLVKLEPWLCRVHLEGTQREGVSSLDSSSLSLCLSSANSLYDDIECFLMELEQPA
Technique: protein-binding microarray
Molecule type: double-stranded DNA, one strand shown
Sample: in vitro
Tested at: 2200 nM top
Setting: 60-bp whole probe
Added: salmon DNA 0.4 mg/ml
Relative to: random background probes
Reading: higher = stronger binding
Shared flanks, not repeated: GCCTAGCAC … GTCTTGATTCGCTTGACGCTGCTG
| Strand | fitted relative affinity [z-score] |
| --- | --- |
| GACGGTCTCCTGCTGCTGACGTGCTAG | 0.335 |
| TTAGGGATCGACTATCGGTTAGTGCTA | -0.104 |
| TCAACTTTCTACTTCTCACTGTGCTAG | 5.38 |
| TTAGGTCTCCTTATCCTTGAGTGCTAG | 0.719 |
| TTTTTTTTCACTATTGCTTCGTGCTAG | 3.38 |
| GACGGTGTCGACTATCGGGACGTGCTA | -0.0586 |
| GACGGTATCGGCCTCGGGACGTGCTAG | -0.481 |
| GTCGAACTGGGGACTGGAGACGTGCTA | 0.0451 |

Series 3
Target: Protein C-ets-1, full length (ETS1, Homo sapiens, UniProt P14921, residues 1-441)
Technique: protein-binding microarray
Molecule type: hairpin DNA
Sample: in vitro
Tested at: not given
Setting: whole hairpin DNA, median over replicate spots
Relative to: not given
Reading: higher = stronger binding
Residues (chain): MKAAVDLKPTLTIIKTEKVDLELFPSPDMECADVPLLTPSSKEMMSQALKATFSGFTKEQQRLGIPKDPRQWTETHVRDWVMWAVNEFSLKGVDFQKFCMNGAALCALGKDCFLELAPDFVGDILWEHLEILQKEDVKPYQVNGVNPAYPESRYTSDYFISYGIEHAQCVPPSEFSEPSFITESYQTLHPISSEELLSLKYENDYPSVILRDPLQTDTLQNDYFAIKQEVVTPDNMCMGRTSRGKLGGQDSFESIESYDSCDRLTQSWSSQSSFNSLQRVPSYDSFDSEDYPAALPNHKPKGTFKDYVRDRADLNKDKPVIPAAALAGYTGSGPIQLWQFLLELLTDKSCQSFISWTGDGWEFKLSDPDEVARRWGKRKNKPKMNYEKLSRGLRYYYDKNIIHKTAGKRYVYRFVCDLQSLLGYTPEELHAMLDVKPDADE
| Strand | median fluorescence |
| --- | --- |
| GAGGCCCGTCGGAAGTTGCCTCCTGGCAACTTCCGACGGGCCTCACACTC | 2950 a.u. |
| GAGGCCAGCCGGAACGTGCCTCCTGGCACGTTCCGGCTGGCCTCACACTC (5mC at 15 29) | 1000 a.u. |
| GAGGCCAGCCGGAAGCGGCCTCCTGGCCGCTTCCGGCTGGCCTCACACTC (5mC at 28) | 5730 a.u. |
| GAGGCCAGCCGGCGGTTGCCTCCTGGCAACCGCCGGCTGGCCTCACACTC | 577 a.u. |
| GAGGCCAGACGGAAGTTGCCTCCTGGCAACTTCCGTCTGGCCTCACACTC | 4380 a.u. |
| GAGGCCCGCCGGAAGTTGCCTCCTGGCAACTTCCGGCGGGCCTCACACTC (5mC at 7) | 8560 a.u. |
| GAGGCCAGCCGGAAGTCGCCTCCTGGCGACTTCCGGCTGGCCTCACACTC | 8710 a.u. |
| GAGGCCAGCCGGAAGTTGCCTCCTGGCAACTTCCGGCTGGCCTCACACTC (5mC at 37) | 9860 a.u. |

Further values, each from its own experiment
| Sequence | target | read-out | molecule type | tested at | quantity | value |
| --- | --- | --- | --- | --- | --- | --- |
| FVMPIFEQI | HLA class I histocompatibility antigen, A alpha chain, allele A*80:01 (Homo sapiens, UniProt P04439) | peptide-MHC binding | peptide | concentration not given | binding | inactive |

For quick reference, copied from above (series 1):
| Sequence | lacZ reporter activity |
| --- | --- |
| B5 (TRIM5 RING domain) | 0 |
| B6 (VPS41 RING domain) | 0 |
